Assay results gathered from unrelated publications.
Parts stem from different laboratories: compare values within a part only.
Sequence of UniProt P53671 (whole entry, looked up): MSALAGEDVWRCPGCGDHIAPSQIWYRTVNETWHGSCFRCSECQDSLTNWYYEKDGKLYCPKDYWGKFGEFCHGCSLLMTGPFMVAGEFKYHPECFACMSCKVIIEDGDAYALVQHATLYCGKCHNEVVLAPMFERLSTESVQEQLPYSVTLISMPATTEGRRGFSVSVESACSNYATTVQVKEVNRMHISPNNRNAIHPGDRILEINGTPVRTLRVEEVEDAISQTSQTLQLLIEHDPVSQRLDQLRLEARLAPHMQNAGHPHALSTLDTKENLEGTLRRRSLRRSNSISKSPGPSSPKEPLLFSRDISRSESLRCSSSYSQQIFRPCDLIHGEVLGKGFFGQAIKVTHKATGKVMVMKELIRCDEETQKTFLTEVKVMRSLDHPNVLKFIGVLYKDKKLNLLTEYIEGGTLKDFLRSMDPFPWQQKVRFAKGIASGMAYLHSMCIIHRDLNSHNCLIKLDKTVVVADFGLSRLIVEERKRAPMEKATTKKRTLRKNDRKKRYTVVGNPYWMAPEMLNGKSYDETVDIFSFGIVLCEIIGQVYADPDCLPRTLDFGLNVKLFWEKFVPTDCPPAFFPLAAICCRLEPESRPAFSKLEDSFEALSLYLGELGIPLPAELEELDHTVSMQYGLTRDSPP
Sequence of UniProt Q9Y572 (whole entry, looked up): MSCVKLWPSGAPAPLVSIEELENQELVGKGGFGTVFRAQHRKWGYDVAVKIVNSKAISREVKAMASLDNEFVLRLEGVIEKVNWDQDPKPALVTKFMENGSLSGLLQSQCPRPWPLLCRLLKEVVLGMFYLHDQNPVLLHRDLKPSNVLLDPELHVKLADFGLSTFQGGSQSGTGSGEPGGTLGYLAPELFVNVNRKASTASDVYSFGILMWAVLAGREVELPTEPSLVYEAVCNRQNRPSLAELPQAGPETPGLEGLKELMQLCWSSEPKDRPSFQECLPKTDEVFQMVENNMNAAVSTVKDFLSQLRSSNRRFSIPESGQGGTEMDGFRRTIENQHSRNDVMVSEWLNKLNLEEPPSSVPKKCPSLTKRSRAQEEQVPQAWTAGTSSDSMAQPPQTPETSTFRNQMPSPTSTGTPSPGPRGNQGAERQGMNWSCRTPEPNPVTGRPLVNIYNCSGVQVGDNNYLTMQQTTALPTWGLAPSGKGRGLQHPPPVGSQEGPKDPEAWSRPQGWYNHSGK
Sequence of UniProt Q6PHR2 (whole entry, looked up): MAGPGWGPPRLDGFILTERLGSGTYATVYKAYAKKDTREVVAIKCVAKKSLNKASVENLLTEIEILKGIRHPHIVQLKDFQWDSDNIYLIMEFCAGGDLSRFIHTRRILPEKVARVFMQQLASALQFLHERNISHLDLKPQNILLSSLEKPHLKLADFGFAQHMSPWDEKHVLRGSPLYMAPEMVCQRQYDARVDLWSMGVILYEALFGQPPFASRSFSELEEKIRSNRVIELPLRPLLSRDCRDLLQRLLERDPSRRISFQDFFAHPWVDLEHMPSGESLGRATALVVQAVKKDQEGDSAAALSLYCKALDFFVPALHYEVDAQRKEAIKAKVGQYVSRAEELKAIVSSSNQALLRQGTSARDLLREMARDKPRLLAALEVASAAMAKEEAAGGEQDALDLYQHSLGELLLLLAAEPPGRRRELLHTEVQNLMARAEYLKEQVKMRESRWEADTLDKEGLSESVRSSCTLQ
Sequence of UniProt Q13554 (whole entry, looked up): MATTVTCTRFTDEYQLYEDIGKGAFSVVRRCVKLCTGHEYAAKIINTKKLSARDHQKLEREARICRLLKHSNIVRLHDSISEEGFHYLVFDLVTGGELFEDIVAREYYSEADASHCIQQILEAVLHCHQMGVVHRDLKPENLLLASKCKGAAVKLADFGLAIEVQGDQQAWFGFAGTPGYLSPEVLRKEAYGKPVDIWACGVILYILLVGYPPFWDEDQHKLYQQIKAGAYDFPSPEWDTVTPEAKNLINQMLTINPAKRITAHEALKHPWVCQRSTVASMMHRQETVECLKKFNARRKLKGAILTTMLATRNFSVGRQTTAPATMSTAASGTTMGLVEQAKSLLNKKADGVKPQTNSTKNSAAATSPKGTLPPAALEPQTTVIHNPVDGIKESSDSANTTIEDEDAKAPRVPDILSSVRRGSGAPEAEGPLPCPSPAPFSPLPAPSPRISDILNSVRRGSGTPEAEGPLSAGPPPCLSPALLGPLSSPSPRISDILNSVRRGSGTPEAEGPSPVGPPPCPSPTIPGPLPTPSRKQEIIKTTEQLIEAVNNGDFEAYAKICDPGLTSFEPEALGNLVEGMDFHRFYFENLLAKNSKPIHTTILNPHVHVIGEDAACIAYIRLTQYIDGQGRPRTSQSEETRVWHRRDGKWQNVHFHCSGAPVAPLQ
Sequence of UniProt Q13976 (whole entry, looked up): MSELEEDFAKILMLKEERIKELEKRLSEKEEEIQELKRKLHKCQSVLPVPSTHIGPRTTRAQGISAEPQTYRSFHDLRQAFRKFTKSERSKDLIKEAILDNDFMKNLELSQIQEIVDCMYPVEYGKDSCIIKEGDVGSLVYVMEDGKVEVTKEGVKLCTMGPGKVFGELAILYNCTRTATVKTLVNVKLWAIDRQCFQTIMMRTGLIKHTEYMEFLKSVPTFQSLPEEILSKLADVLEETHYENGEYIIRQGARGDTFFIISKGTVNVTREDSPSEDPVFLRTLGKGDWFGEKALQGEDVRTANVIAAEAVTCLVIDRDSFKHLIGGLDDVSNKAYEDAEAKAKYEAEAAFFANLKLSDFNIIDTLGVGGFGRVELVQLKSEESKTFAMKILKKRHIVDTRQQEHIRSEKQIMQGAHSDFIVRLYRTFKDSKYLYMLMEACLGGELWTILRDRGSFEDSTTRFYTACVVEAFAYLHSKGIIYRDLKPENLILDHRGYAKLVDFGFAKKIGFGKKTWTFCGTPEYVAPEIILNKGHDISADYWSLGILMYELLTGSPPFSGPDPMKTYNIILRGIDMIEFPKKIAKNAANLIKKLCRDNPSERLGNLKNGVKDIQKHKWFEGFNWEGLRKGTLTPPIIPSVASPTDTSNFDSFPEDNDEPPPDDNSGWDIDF
Sequence of UniProt Q13882 (whole entry, looked up): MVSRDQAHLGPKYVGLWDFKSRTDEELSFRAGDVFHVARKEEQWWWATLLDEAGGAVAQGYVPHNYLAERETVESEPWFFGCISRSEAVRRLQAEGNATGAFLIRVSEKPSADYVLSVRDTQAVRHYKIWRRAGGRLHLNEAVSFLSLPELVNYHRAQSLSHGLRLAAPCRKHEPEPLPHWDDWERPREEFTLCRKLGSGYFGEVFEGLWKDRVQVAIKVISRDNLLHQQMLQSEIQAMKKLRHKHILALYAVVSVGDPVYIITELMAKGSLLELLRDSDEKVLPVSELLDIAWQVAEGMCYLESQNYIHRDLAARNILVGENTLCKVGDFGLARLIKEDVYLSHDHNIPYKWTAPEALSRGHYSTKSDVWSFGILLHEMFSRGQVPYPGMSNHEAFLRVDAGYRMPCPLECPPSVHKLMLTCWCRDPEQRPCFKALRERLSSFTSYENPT

Series 1
Structure (SMILES): C=CCc1ccc(O)c(-c2ccc(O)c(CC=C)c2)c1
Observed: chloride current
ANO1 del476-501/F628A: Anoctamin-1 (ANO1, Homo sapiens, UniProt Q5XXA6, del476-501/F628A)
Sequence of UniProt Q5XXA6 (whole entry, unmodified, looked up): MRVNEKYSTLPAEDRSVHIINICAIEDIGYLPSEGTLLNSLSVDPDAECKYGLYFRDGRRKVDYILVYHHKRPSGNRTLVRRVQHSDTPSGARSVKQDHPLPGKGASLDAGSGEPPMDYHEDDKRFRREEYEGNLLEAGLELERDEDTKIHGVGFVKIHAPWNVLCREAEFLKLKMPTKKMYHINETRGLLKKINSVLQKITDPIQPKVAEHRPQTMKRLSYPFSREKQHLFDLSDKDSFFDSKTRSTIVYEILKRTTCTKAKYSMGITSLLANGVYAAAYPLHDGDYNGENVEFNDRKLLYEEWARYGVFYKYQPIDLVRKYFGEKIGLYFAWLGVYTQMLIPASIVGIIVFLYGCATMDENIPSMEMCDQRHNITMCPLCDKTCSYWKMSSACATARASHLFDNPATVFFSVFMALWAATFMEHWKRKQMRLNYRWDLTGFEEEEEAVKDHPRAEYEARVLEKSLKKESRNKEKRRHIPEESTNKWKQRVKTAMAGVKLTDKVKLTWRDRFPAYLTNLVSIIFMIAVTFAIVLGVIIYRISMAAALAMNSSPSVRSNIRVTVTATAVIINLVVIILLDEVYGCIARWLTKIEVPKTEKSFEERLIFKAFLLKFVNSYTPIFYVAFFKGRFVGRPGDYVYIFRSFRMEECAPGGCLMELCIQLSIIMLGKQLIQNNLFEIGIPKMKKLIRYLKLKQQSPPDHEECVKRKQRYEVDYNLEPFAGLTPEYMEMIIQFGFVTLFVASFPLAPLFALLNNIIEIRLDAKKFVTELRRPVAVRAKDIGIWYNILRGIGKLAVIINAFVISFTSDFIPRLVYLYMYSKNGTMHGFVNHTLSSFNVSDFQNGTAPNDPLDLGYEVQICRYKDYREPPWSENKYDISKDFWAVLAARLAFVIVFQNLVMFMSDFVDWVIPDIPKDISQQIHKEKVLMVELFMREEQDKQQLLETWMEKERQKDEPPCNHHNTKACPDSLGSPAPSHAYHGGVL
target | assay | conditions | normalized current
ANO1 del476-501/F628A | whole-cell voltage clamp | 3 µM, concentration-response at 40 mV, with: 4 µM Ca2+ | 0.356
TMEM16A (human) K603A/E623A | inside-out patch clamp | 10 µM, membrane voltage 60 mV | 0.374
TMEM16A (human) K603A/E623A | inside-out patch clamp | 10 µM, membrane voltage -40 mV | -0.175
ANO1 del476-501/F628A | whole-cell voltage clamp | 100 µM, I-V at 100 mV, with: 4 µM Ca2+ | 0.292
ANO1 del476-501/F628A | whole-cell voltage clamp | 100 µM, concentration-response at -40 mV, with: 4 µM Ca2+ | -0.0671
Anoctamin-1 (ANO1, Homo sapiens, UniProt Q5XXA6) | inside-out patch clamp | 10 µM, membrane voltage 40 mV | 0.308
Anoctamin-1 (ANO1, Homo sapiens, UniProt Q5XXA6, del476-501) | whole-cell voltage clamp | 30 µM, wild type, I-V at -60 mV, with: 4 µM Ca2+ | -0.0427

Series 2
Structure (SMILES): CCCOc1ccc([C@H]2[C@H](C(=O)O)[C@@H](c3ccc4c(c3)OCO4)CN2CC(=O)Nc2c(CC)cccc2CC)cc1
Observed: cell-free assay
Method: competition with immobilised ligand
Concentration: 1 µM
target | remaining binding
Tyrosine-protein kinase ABL1, non-phosphorylated (ABL1, Homo sapiens, UniProt P00519, T315I) | 58%
EGFR (Homo sapiens, UniProt P00533, A750P/del747-749) | 100%
CDK7 (Homo sapiens, UniProt P50613) | 78%
FGFR1 (Homo sapiens, UniProt P11362) | 100%
STK26 (Homo sapiens, UniProt Q9P289) | 74%
CHUK (Homo sapiens, UniProt O15111) | 77%
PLK4 (Homo sapiens, UniProt O00444) | 78%
ULK3 (Homo sapiens, UniProt Q6PHR2) | 72%
FLT3 (Homo sapiens, UniProt P36888, D835V) | 88%
CAMK2B (Homo sapiens, UniProt Q13554) | 99%
MAP3K2 (Homo sapiens, UniProt Q9Y2U5) | 82%
SNRK (Homo sapiens, UniProt Q9NRH2) | 84%
PTK6 (Homo sapiens, UniProt Q13882) | 84%
TAOK3 (Homo sapiens, UniProt Q9H2K8) | 81%
PIK3CA (Homo sapiens, UniProt P42336, Q546K) | 69%

Series 3
Structure (SMILES): O=C(Nc1cnn(-c2csc(C(=O)NC3COC3)c2)c1)Nc1c(F)cccc1Cl
Concentration: 5 µM
target | assay | scale | remaining activity [%]
NEK5 (Homo sapiens, UniProt Q6P3R8) | enzyme activity, inhibitor | – | 88.1
PRKG1 (Homo sapiens, UniProt Q13976) | kinase activity, kinase panel profiling | – | 93.2
CSK (Homo sapiens, UniProt P41240) | enzyme activity | relative to: untreated control | 96.5
MAPK1 (Homo sapiens, UniProt P28482) | enzyme activity | relative to: untreated control | 83.9
TTBK1 (Homo sapiens, UniProt Q5TCY1) | enzyme activity | relative to: untreated control | 80.8
RIPK3 (Homo sapiens, UniProt Q9Y572) | enzyme activity | relative to: untreated control | 92.7
MAP4K3 (Homo sapiens, UniProt Q8IVH8) | enzyme activity | relative to: untreated control | 99.2
Tyrosine-protein kinase Lyn, isoform B (LYN, Homo sapiens, UniProt P07948) | enzyme activity | relative to: untreated control | 87.3
NIM1K (Homo sapiens, UniProt Q8IY84) | enzyme activity | relative to: untreated control | 69.8
LIM domain kinase 2 (LIMK2, Homo sapiens, UniProt P53671) | enzyme activity, inhibitor | – | 94

Series 4
Target: Calcium/calmodulin-dependent protein kinase type II subunit alpha (CAMK2A, Homo sapiens, UniProt Q9UQM7)
Sequence of UniProt Q9UQM7 (whole entry, looked up): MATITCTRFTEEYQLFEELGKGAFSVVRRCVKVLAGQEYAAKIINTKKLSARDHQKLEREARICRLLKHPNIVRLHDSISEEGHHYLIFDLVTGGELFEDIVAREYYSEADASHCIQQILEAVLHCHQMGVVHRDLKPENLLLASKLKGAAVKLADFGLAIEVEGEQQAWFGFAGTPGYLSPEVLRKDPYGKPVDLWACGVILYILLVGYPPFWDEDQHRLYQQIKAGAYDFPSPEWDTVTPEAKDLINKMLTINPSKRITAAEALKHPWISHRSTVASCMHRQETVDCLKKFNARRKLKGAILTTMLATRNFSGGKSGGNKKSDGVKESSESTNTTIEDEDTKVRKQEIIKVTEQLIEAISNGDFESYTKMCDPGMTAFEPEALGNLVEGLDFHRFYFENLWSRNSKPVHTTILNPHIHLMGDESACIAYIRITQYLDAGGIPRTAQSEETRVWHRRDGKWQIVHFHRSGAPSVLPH
Observed: enzyme activity
Mode: inhibitor
Concentration: 10 µM
SMILES | inhibition
COc1ccc(-c2oc3c4c(cc(O)c3c(=O)c2O)OC(C)(C)CC4)cc1 | -13%
CC(C)=CCC[C@](C)(O[C@@H]1O[C@H](CO)[C@@H](O)[C@H](O)[C@H]1O)[C@H]1CC[C@]2(C)[C@@H]1[C@H](O)C[C@@H]1[C@@]3(C)CC[C@H](O)C(C)(C)[C@@H]3[C@@H](O[C@@H]3O[C@H](CO)[C@@H](O)[C@H](O)[C@H]3O[C@@H]3O[C@@H](C)[C@H](O)[C@@H](O)[C@H]3O)C[C@]12C | -16%
O=C(O)CC1CCCCC1 | -36%
COc1ccc(C(C)=O)c(O)c1O | 1%
CCC[C@@H]1C[C@@H](C(=O)N[C@@H]([C@H]2O[C@H](SC)[C@H](O)[C@@H](O)[C@H]2O)[C@@H](C)O)N(C)C1 | -7%
N[C@@H](CSCC(=O)O)C(=O)O | -4%
C[C@H](Cc1ccc(O)c(O)c1)[C@@H](C)Cc1ccc(O)c(O)c1 | 3%
O=C1C=C(O)C(=O)c2ccccc21 | 9%
CCCCCCCCCCCCCCCCCCO | -33%
Oc1ccc2c(c1)OCO2 | 31%

Some of these lines once more (series 2):
target | remaining binding
ULK3 (Homo sapiens, UniProt Q6PHR2) | 72%
FLT3 (Homo sapiens, UniProt P36888, D835V) | 88%
CAMK2B (Homo sapiens, UniProt Q13554) | 99%
MAP3K2 (Homo sapiens, UniProt Q9Y2U5) | 82%
SNRK (Homo sapiens, UniProt Q9NRH2) | 84%
PTK6 (Homo sapiens, UniProt Q13882) | 84%
